Measurements collected from several papers.
Each numbered part is a random draw from the data of one study; scales do not carry over between parts.

Series 1
Target: Sal-like protein 4, full length isoform B (SALL4, Homo sapiens, UniProt Q9UJQ4-2, residues 1-616)
Method: universal PBM
Form: double-stranded DNA, one strand shown
Sample: in vitro
Concentration: not given
Setting: 8-mer, flanks averaged, mean of replicates
Reading: higher = stronger binding
The E-score of `GTGATGAA` is reported as 0.0822.
With `ACGCGCAC` the E-score was -0.281.
`CCCTTTGA` gave an E-score of -0.101.
`AGTAATAC` has an E-score of 0.189.

Series 2
Target: Prothrombin, mature alpha-thrombin (F2, Homo sapiens, UniProt P00734)
Method: aptamer microarray, sandwich
Form: DNA with 2'F-ANA
Sample: in vitro
Concentration: 200 nM
Setting: whole 15-mer aptamer, many near background
Together with: Cy3 exosite-II aptamer, 400 nM
Reading: higher = stronger binding
Under “mean fluorescence intensity”, `GGTTGGTGTGGTTGG (2'F-ANA at 2 3 4 6 7 12 13 14)` is recorded as 256 a.u.
For `GGTTGGTGTGGTTGG (2'F-ANA at 1 2 4 6 10 12 13 14 15)`, “mean fluorescence intensity” read 69.1 a.u.
For `GGTTGGTGTGGTTGG (2'F-ANA at 3 4 5 8 9)`, “mean fluorescence intensity” read 116 a.u.
`GGTTGGTGTGGTTGG (2'F-ANA at 5 8 9 10 13 14 15)` — result for “mean fluorescence intensity”: 45.9 a.u.

Series 3
Target: RING finger protein unkempt homolog, zinc fingers 1-6, GST-SBP tag (UNK, Homo sapiens, UniProt Q9C0B0, residues 30-357)
Method: RNA Bind-n-Seq
Form: RNA
Sample: in vitro
Concentration: not given
Setting: RNA with constant flanks, human and mouse sites, ends assumed
Baseline: input RNA pool
Reading: higher = stronger binding
Shared flanks, not repeated: GGGAGUUCUACAGUCCGACGAUC … CAACAGAGGAUUGAGCAUCA
Construct (chain): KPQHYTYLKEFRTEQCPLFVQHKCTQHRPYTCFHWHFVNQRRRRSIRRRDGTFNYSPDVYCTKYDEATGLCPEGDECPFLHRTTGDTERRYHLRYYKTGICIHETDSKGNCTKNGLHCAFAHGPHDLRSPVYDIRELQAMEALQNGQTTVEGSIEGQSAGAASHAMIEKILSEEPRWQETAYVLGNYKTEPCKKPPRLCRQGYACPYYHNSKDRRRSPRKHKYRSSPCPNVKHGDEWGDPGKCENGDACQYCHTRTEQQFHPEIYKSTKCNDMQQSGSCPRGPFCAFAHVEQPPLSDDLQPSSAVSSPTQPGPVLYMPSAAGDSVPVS
`AGAGAACUGGGAAACAUCAUUCAGAAACACGCCCAAGCAAAUGGAUUCUCAGUUGUUCGAAGCUAUUGUGGGCAUGGGAUCCACAAACUUUUCCAUACAGCCCCCAAUGUCCCGCACUAU` has a bound/input enrichment of 0.152 ratio.
With `ACAUCUGCAGAUAAAGUGGAGAGUCUGGAUGUGGAUAGUGAAGCUAAGAAACUAUUGGGUUUAGGACAGAAACAUCUGGUGAUGGGGGAUAUUCCAGCAGCUGUCAAUGCAUUCCAGGAA` the bound/input enrichment was 0.524 ratio.
The bound/input enrichment of `CACAGGGCGACGGGAAGCCUGCAGCAGGCCCUCGUGUGCUUCGAGAAGAGGCUGGUGGUGGCCCAUGAGCUCGGGGAGGCCUCCAAUAAAGCUCAGGCCUACGGAGAGCUGGGAAGCCUC` is reported as 0.0927 ratio.
`AAGAUUUUAGAAGAAUUUAGGAAAACACAACAGACAUCCCCUGACAAGGUGGAUUAUGAAUAUAGUGAACUACUCUUAUAUCAGAAUCAAGUUCUUCGGGAAGCAGGUCUCUAUAGAGAA` gave a bound/input enrichment of 1.56 ratio.
For `AUGGAUGACAAGGCCUCUGUUGGAAAAAUCAGUGUCUCAUCAGACUCAGUGUCUACUCUUAAUAGUGAAGAUUUUGUCUUGGUUUCCAGGCAAGGAGAUGAGACACCAUCUACAAAUAAU`, the bound/input enrichment was 0.907 ratio.

Further values, each from its own experiment
The fold induction of `PhoQ, residues 284 288 289 292 302 303 QWQEDG` is reported as 0.801 (PhoP, residues 12 14 15 18 19 NIMAP (Escherichia coli, UniProt P23836); Sort-seq, refers to: YFP reporter; E. coli; PhoQ-PhoP variant library, together with: 10 µM Mg2+; baseline: high Mg2+ state, higher = stronger signaling).

For quick reference, copied from above (series 3):
For `AUGGAUGACAAGGCCUCUGUUGGAAAAAUCAGUGUCUCAUCAGACUCAGUGUCUACUCUUAAUAGUGAAGAUUUUGUCUUGGUUUCCAGGCAAGGAGAUGAGACACCAUCUACAAAUAAU`, the bound/input enrichment was 0.907 ratio.
